{"data": "Experimental data from different studies", "note": "A part holds a random share of what one study measured."}
{"data": "Sample 1", "host": "female CD-1 mouse", "matrix": "plasma", "route": "oral", "dose": "60 mg/kg"}
{"SMILES": "Cc1ccc(O)c(C)c1-c1cnc2[nH]c(-c3cnc(N4CCC(CN5CCN(c6cc7c(cc6F)c(N6CCC(=O)NC6=O)nn7C)CC5)CC4)nc3)cc2c1C#N", "Cmax [ng/mL]": 1930}
{"SMILES": "Cc1ccc(O)c(C)c1-c1cnc2[nH]c(-c3cnc(N4CCC5(CC4)CC(N4CCN(c6ccc(NC7CCC(=O)NC7=O)cc6F)CC4)CO5)nc3)cc2c1C#N (stereo not drawn)", "Cmax [ng/mL]": 1630}
{"SMILES": "Cc1ccc(O)c(C)c1-c1cnc2[nH]c(-c3cnc(N4CCC(CCN5CCN(c6ccc(NC7CCC(=O)NC7=O)cc6F)CC5)CC4)nc3)cc2c1C#N (stereo not drawn)", "Cmax [ng/mL]": 1180}
{"SMILES": "Cc1ccc(O)c(C)c1-c1cnc2[nH]c(-c3cnc(N4CCC(CN5CCN(c6ccc(NC7CCC(=O)NC7=O)cc6F)CC5)CC4)nc3)cc2c1C#N (stereo not drawn)", "Cmax [ng/mL]": 3650}
{"SMILES": "Cc1ccc(O)c(C)c1-c1cnc2[nH]c(-c3cnc(N4CCC(CN5CCN(c6ccc7c(c6)C(=O)N(C6CCC(=O)NC6=O)C7=O)CC5)CC4)nc3)cc2c1C#N (stereo not drawn)", "Cmax [ng/mL]": 1140}
{"SMILES": "Cc1ccc(O)c(C)c1-c1cnc2[nH]c(-c3cnc(N4CCC(CN5CCN(c6ccc7c(c6F)CN(C6CCC(=O)NC6=O)C7=O)CC5)CC4)nc3)cc2c1C#N (stereo not drawn)", "Cmax [ng/mL]": 2030}
{"data": "Sample 2", "Compound": "C[C@@H]1CN(c2ccc(-c3cc(C(=O)NCCOCCOCCOCCOCCNC(=O)Cn4cc(-c5[nH]cc(C(=O)N[C@@H](CC(N)=O)c6ccc(F)c(Cl)c6)c5-c5ccc(Cl)cc5F)cn4)ccc3F)cc2NC(=O)c2c[nH]c(=O)cc2C(F)(F)F)C[C@H](C)N1C", "effect on": "thermal unfolding", "technique": "differential scanning fluorimetry", "tested at": "5.5 µM", "reading": "higher = more unfolded", "DCAF1": "DDB1- and CUL4-associated factor 1 (DCAF1, Homo sapiens, UniProt Q9Y4B6)", "WDR5": "WD repeat-containing protein 5 (WDR5, Homo sapiens, UniProt P61964)", "UniProt Q9Y4B6, sequence (whole entry, looked up)": "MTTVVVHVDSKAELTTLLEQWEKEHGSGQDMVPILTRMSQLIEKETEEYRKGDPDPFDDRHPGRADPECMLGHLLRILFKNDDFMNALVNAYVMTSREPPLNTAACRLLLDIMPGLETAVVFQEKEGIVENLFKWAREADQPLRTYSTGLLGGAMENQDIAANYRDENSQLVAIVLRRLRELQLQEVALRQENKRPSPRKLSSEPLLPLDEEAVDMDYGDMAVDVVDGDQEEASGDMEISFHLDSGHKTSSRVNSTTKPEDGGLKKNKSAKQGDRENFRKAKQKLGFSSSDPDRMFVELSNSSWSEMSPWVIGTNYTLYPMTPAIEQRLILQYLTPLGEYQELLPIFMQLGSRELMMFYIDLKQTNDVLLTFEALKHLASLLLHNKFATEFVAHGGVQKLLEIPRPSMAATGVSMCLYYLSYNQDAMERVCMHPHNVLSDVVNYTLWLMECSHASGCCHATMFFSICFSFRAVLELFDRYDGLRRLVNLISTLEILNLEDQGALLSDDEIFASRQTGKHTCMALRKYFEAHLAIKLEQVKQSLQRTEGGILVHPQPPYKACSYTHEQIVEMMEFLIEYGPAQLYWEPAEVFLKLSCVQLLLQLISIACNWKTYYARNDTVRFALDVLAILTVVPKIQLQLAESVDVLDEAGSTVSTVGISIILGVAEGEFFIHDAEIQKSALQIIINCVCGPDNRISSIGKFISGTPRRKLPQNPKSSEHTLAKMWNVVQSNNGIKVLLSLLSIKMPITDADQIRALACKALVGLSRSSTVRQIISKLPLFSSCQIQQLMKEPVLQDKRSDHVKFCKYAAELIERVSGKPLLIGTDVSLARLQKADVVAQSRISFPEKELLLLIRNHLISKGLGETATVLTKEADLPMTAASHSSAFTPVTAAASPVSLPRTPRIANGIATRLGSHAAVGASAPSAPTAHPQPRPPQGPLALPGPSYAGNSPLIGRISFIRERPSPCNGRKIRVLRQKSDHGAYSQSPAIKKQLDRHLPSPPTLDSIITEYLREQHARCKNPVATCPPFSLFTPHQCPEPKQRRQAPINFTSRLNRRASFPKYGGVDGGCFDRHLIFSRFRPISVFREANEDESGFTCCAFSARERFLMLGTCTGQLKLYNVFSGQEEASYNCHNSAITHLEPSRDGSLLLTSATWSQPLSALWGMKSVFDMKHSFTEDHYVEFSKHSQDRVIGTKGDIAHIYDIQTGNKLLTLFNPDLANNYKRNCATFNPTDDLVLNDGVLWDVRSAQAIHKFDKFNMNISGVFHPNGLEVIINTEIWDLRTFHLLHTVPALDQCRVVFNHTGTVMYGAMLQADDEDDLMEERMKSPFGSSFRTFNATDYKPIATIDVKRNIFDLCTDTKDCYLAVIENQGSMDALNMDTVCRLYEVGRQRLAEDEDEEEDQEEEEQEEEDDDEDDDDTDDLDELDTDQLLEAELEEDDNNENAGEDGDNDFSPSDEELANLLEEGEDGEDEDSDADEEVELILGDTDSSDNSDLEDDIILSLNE"}
{"target": "DCAF1", "temperature": "31 °C", "SYPRO Orange fluorescence [a.u.]": 8290}
{"target": "DCAF1", "temperature": "66.21 °C", "SYPRO Orange fluorescence [a.u.]": 56700}
{"target": "DCAF1", "temperature": "80.61 °C", "SYPRO Orange fluorescence [a.u.]": 43700}
{"target": "WDR5", "temperature": "82.21 °C", "SYPRO Orange fluorescence [a.u.]": 30600}
{"target": "DCAF1", "temperature": "37.6 °C", "SYPRO Orange fluorescence [a.u.]": 9540}
{"target": "WDR5", "temperature": "59.41 °C", "SYPRO Orange fluorescence [a.u.]": 10700}
{"target": "DCAF1", "temperature": "57.21 °C", "SYPRO Orange fluorescence [a.u.]": 25700}
{"data": "Sample 3", "Structure (SMILES)": "CCN1/C(=C/C=C2\\CCCC(/C=C/C3=[N+](CC)c4ccccc4C3(C)C)=C2NCCCCCCCCN2CCC(Nc3nc4ccccc4n3Cc3ccc(F)cc3)CC2)C(C)(C)c2ccccc21", "cell line": "U-87 MG", "tested at": "concentration not given", "reference": "DMSO"}
{"refers to": "SKIL mRNA", "log2 fold change": 0.809}
{"refers to": "CNN2 mRNA", "log2 fold change": -1.96}
{"refers to": "DAAM2 mRNA", "log2 fold change": -2.36}
{"refers to": "ABCB6 mRNA", "log2 fold change": -0.896}
{"refers to": "TSGA10 mRNA", "log2 fold change": 0.997}
{"refers to": "SH3RF2 mRNA", "log2 fold change": -1.56}
{"refers to": "MYLK mRNA", "log2 fold change": -1.98}
{"refers to": "SGCG mRNA", "log2 fold change": 2.19}
{"refers to": "RND3 mRNA", "log2 fold change": 1.93}
{"refers to": "STAB1 mRNA", "log2 fold change": -4.61}
{"refers to": "CRELD2 mRNA", "log2 fold change": -0.906}
{"data": "Single results of other studies", "SLC6A19": "Sodium-dependent neutral amino acid transporter B(0)AT1 (SLC6A19, Homo sapiens, UniProt Q695T7)", "UniProt Q695T7, sequence (whole entry, looked up)": "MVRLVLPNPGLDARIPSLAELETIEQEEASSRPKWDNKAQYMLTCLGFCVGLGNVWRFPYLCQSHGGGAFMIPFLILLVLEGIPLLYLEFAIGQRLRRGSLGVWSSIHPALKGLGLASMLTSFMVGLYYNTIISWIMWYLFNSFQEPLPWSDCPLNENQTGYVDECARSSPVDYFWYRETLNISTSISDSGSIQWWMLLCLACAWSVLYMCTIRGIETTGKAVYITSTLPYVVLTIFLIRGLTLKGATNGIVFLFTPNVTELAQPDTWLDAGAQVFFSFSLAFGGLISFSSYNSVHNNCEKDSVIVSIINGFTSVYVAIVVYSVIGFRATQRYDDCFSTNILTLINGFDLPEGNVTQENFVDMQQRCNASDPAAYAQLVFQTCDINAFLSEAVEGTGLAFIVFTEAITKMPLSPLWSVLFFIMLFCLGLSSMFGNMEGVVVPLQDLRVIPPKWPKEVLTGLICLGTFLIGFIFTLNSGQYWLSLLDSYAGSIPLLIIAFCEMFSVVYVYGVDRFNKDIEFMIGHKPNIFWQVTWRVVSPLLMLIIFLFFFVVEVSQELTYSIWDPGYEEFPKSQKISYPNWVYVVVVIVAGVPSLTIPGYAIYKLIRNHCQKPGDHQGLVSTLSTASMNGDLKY"}
{"SMILES": "Cc1cc(NCC(=O)NC(C)C)cc(C)c1Cl", "target or system": "SLC6A19", "assay": "inhibitor, FLIPR membrane potential", "test system": "CHO-BC cells", "conditions": "10 µM, unit not given", "how to read": "reference: no inhibitor", "measurement": "remaining transport activity", "result": 0.194}
{"SMILES": "Cc1nc(C)c(C=[N+]([O-])C(C)(C)C)nc1C", "assay": "MTT", "test system": "primary midbrain neurons, Sprague-Dawley rat", "conditions": "100 µM, 2 h pretreatment, added: 20 µM MPP+ for 24 h", "how to read": "reference: untreated control", "measurement": "viability", "result": "66%"}
{"SMILES": "Cc1cc(OCC(=O)NC(C)C)ccc1I", "target or system": "SLC6A19", "assay": "inhibitor, FLIPR membrane potential", "test system": "CHO-BC cells", "conditions": "1 µM, unit not given", "how to read": "reference: no inhibitor", "measurement": "remaining transport activity", "result": 0.468}
{"note": "Some of these lines once more (sample 3):"}
{"refers to": "MYLK mRNA", "log2 fold change": -1.98}
{"refers to": "SGCG mRNA", "log2 fold change": 2.19}
{"refers to": "RND3 mRNA", "log2 fold change": 1.93}
{"refers to": "STAB1 mRNA", "log2 fold change": -4.61}
